Published values collected from several papers.
Every numbered part comes from another study and shows a few of its results, in no order. Positions count from the first letter of the parent shown.
Chain of UniProt O60285 (whole entry, looked up): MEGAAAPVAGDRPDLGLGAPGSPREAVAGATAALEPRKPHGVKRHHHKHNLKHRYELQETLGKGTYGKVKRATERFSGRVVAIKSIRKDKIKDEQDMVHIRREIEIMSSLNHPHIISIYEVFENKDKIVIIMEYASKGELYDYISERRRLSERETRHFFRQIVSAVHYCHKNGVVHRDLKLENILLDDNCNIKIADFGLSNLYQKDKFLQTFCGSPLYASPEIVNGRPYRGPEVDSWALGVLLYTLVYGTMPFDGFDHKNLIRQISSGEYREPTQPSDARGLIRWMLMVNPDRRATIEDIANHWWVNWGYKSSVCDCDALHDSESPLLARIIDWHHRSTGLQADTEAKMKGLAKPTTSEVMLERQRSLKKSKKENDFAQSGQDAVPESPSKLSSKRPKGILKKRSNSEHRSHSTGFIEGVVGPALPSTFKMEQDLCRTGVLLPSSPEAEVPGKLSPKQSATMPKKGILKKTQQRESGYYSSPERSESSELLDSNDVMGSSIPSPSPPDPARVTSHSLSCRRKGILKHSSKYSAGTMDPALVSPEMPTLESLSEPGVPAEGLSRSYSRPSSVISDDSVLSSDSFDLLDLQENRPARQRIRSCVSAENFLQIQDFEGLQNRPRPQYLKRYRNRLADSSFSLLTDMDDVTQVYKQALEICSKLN
Chain of UniProt Q8IVW4 (whole entry, looked up): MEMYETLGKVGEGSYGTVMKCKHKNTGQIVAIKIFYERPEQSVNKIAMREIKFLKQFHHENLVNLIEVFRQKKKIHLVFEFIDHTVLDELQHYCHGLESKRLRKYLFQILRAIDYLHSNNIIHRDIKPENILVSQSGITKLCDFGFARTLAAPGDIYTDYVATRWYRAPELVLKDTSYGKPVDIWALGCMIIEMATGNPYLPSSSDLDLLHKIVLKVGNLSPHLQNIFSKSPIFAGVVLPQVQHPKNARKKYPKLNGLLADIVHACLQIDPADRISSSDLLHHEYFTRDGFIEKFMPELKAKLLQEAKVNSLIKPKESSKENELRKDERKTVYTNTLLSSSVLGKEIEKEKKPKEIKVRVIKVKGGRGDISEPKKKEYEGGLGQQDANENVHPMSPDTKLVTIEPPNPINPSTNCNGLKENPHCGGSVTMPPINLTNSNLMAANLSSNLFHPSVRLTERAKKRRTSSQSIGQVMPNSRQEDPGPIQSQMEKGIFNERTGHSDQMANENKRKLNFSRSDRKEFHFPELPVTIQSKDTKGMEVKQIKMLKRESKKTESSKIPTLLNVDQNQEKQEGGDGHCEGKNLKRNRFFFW

Series 1 — method: aptamer microarray, sandwich; form: DNA with 2'F-ANA; sample: in vitro; tested at: 200 nM; with: Cy3 exosite-II aptamer, 400 nM; direction: higher = stronger binding; strand: GGTTGGTGTGGTTGG
Target: Prothrombin, mature alpha-thrombin (F2, Homo sapiens, UniProt P00734)
Notes: whole 15-mer aptamer, many near background
Modification | mean fluorescence intensity [a.u.]
2'F-ANA at 2 3 4 5 8 9 11 15 | 143
2'F-ANA at 1 2 3 4 5 7 9 10 13 14 | 99.2
2'F-ANA at 2 3 4 7 9 10 11 12 13 15 | 225
2'F-ANA at 1 2 3 5 6 9 10 11 15 | 52.4
2'F-ANA at 4 6 10 11 12 13 14 15 | 58.7
2'F-ANA at 3 6 7 8 10 11 14 | 437
2'F-ANA at 3 5 10 11 15 | 58.4
2'F-ANA at 2 3 4 5 8 9 10 11 14 15 | 66

Series 2 — read-out: enzyme activity; action: inhibitor; tested at: 0.5 µM; baseline: control
Target: Calcium/calmodulin-dependent protein kinase type IV (CAMK4, Homo sapiens, UniProt Q16566)
Chain of UniProt Q16566 (whole entry, looked up): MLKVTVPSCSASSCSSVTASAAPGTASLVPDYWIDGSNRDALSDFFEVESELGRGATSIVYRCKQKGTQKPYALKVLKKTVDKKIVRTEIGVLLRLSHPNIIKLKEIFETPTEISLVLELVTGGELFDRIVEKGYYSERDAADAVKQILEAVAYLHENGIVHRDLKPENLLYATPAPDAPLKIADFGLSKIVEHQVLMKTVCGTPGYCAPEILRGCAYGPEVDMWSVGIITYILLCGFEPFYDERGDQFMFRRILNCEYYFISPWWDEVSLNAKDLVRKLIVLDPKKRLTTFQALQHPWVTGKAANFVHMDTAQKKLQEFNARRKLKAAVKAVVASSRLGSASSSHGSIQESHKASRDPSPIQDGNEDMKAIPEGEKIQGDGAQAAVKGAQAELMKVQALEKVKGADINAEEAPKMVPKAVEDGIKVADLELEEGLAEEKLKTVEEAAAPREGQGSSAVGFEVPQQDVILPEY
Structure (SMILES) | remaining activity
CO[C@H]1C[C@@H]2CC[C@@H](C)[C@@](O)(O2)C(=O)C(=O)N2CCCC[C@H]2C(=O)O[C@H]([C@H](C)C[C@@H]2CC[C@@H](O)[C@H](OC)C2)CC(=O)[C@H](C)/C=C(\C)[C@@H](O)[C@@H](OC)C(=O)[C@H](C)C[C@H](C)/C=C/C=C/C=C/1C | 99.1%
O=S(=O)(c1cccc2cnccc12)N1CCCNCC1 | 92.9%
Nc1[nH]nc2nc3ccccc3nc12 | 104%
Nc1ncnc2n[nH]c(Nc3ccc(F)cc3)c12 | 103%
CNC(=O)c1cc(Oc2ccc(NC(=O)Nc3ccc(Cl)c(C(F)(F)F)c3)cc2)ccn1 | 107%
CN(C)c1ccc(C=C2C(=O)Nc3ccccc32)cc1 | 97.8%
N#CC(C#N)=C(N)/C(C#N)=C/c1ccc(O)cc1 | 97.2%
CC(C)[C@H](CO)Nc1nc(Nc2cc(N)cc(Cl)c2)c2ncn(C(C)C)c2n1 | 97.4%
COc1cc2ncnc(Nc3ccc(Oc4ccccc4)cc3)c2cc1OC | 97.8%
Cc1cccc(-c2[nH]c(C(C)(C)C)nc2-c2ccc3c(c2)OCO3)n1 | 100%
Nc1ccc2ncnc(NCCc3ccc(Oc4ccccc4)cc3)c2c1 | 98.9%
Cn1c2ccccc2c2c3c(c4c5ccccc5n(CCC#N)c4c21)CNC3=O | 88.1%
OCC(O)CCON=C1C(c2c(O)[nH]c3ccccc23)=Nc2ccccc21 (stereo not drawn) | 93.6%
COc1cc2ncnc(Nc3ccc(F)c(Cl)c3)c2cc1OCCCN1CCOCC1 | 93.3%
C#Cc1cccc(Nc2ncnc3cc(OCCOC)c(OCCOC)cc23)c1 | 94.8%
COc1cc2nccc(Oc3ccc(NC(=S)NC(=O)c4ccccc4C)cc3)c2cc1OC | 103%
O=C(CCCc1ccc(-c2ccccc2F)cc1)Nc1ccc(O)cc1 | 99.6%
O=C1NC(=O)C(c2cn(CCCO)c3ncccc23)=C1c1cnccn1 | 95.6%
COc1ccc(OC)c2c(=S)c3ccccc3[nH]c12 | 101%
Oc1ccc(-c2nc(-c3ccncc3)c(-c3ccc(F)cc3)[nH]2)cc1 | 102%
COc1ccc(C(=O)Nc2sc3c(c2C(N)=O)CCCC3)cc1OC | 95.7%
O=c1c2ccccc2[nH]c(=S)n1CCN1CCC(=C(c2ccc(F)cc2)c2ccc(F)cc2)CC1 | 94.7%
CCOC(=O)c1c(C)[nH]c(/C=C2\C(=O)Nc3ccccc32)c1C | 97.7%
O=C(Nc1cccc(Nc2cc(Nc3cccc(C(F)(F)F)c3)ncn2)c1)C1CC1 | 98.5%

Series 3 — method: competition protein-binding microarray; form: double-stranded DNA, one strand shown; sample: in vitro; tested at: 2 µM; with: Pho4 competitor, 0.05 µM; direction: higher = stronger binding; shared flanks, not repeated: … GTCTTGATTCGCTTGACGCTGCTG
Target: Centromere-binding protein 1, full length, His-tagged (CBF1, Saccharomyces cerevisiae, UniProt P17106, residues 1-351)
Chain of UniProt P17106 (whole entry, looked up): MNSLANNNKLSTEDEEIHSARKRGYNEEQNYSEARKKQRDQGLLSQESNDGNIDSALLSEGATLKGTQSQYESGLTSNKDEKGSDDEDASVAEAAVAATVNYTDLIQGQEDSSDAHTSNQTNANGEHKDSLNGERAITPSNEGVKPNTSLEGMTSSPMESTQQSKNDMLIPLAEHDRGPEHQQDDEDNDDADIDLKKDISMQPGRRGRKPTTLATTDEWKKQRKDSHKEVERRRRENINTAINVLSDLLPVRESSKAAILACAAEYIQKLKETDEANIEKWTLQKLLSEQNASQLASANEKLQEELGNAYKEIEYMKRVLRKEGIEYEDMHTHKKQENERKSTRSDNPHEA
Notes: whole 60-bp probe, lowest competitor level
Strand | fluorescence intensity [a.u.]
AATAAAGAGAAAAACCATGTGCGGTAGCAGCCTGCC | 71
CTTTCCCGATCTTGCTTGGTGGGTGTAGCACATTTG | 73.4
GTTCAGTCCTCATATCATGTGATTCCCCTGGCTCTC | 651
TATTAACGCTGCTGTCATGCCATCTCAATGGGAATT | 77.8
ACTTTGGATTATCTGCTCGTGCAAATGAAATATACT | 182
CGGGGTTAAGTTTGTGAGGTGGGTGGCTTGCAGCAG | 65.2
CTTCTGTAAATTTGTTTTGTGGGTGGACGCGCCCCG | 78.9
CGGGGTTAAGTTTGACGAGTGGGTGGCTTGCAGCAG | 64.1

Series 4 — read-out: cell-free assay; method: competition with immobilised ligand; tested at: 1 µM
Compound: CC(=O)C1=C(C)N(c2cccc(C(F)(F)F)c2)C(=O)N[C@@H]1c1ccc(C#N)nc1
target | remaining binding
CAMK4 (Homo sapiens, UniProt Q16566) | 54.3%
CDKL3 (Homo sapiens, UniProt Q8IVW4) | 98.5%
NUAK1 (Homo sapiens, UniProt O60285) | 93.2%

Series 5 — method: DHFR PCA, dose-response; sample: yeast; notes: Hill fit, mean, not affinity; with: (+)-ABA, dose series; direction: lower = more sensitive
Target: ABI1, truncated, D143A, DHFR fusion (Arabidopsis thaliana, UniProt P49597)
Parent: PYL1, truncated, DHFR fusion (Arabidopsis thaliana, UniProt Q8VZS8); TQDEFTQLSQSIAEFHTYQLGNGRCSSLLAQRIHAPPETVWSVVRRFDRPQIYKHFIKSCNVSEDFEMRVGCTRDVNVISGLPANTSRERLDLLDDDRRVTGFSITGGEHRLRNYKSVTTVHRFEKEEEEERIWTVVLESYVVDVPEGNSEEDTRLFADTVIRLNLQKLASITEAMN
Change | ABA EC50
P37W | 69.1 µM
S11L | 5.11 µM
K58T | 11.1 µM
T73Y | 2.42 µM
R123C | 3.72 µM
L93R | 3.66 µM
V145E | 265 µM
I79M | 7.34 µM
